Published values gathered from unrelated publications.
Parts stem from different laboratories: compare values within a part only. Several values in a cell are separate wells, animals, samples, runs or records.
Chain of UniProt Q9Y4K4 (whole entry, looked up): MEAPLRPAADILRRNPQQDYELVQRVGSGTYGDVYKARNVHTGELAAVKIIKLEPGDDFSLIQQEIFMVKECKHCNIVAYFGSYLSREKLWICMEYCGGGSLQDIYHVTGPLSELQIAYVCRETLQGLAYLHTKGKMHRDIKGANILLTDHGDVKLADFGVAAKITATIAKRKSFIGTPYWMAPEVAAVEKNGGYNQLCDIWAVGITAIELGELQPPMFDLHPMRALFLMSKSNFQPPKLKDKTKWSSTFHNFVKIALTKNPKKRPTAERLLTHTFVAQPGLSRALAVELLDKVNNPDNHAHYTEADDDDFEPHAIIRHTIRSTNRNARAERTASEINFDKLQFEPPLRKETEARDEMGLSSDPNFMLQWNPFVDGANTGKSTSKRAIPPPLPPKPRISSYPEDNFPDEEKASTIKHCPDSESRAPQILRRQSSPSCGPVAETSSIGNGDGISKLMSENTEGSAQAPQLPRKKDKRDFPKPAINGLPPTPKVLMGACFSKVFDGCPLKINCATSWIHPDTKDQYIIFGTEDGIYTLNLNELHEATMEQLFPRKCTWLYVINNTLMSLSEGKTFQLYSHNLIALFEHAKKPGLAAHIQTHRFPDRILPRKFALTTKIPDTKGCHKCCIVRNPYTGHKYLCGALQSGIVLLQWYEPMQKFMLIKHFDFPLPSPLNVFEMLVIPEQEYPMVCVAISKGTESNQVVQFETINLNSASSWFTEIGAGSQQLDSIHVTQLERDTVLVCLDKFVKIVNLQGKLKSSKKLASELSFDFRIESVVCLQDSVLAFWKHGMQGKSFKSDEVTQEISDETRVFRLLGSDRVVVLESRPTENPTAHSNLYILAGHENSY
Chain of UniProt Q16620 (whole entry, looked up): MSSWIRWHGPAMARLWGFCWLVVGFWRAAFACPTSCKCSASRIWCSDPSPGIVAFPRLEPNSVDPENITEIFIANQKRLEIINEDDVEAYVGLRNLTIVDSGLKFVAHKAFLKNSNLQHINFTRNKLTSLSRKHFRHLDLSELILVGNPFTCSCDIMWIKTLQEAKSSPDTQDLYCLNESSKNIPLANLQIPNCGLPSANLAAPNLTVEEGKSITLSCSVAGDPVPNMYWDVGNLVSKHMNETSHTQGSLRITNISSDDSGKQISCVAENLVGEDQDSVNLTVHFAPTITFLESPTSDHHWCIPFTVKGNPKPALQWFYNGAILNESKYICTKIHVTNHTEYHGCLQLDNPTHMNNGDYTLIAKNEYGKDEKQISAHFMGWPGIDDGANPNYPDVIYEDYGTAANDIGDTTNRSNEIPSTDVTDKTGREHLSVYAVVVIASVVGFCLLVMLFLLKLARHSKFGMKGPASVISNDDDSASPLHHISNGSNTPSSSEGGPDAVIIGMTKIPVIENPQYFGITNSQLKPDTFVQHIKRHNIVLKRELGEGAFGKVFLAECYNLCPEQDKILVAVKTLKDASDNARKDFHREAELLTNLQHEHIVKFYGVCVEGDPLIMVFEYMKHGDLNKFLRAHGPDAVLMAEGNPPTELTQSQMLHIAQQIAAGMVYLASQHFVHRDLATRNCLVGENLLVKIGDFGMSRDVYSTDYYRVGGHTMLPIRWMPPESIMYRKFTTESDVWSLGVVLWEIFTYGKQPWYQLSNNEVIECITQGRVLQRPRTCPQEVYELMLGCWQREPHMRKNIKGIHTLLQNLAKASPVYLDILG
Chain of UniProt O75385 (whole entry, looked up): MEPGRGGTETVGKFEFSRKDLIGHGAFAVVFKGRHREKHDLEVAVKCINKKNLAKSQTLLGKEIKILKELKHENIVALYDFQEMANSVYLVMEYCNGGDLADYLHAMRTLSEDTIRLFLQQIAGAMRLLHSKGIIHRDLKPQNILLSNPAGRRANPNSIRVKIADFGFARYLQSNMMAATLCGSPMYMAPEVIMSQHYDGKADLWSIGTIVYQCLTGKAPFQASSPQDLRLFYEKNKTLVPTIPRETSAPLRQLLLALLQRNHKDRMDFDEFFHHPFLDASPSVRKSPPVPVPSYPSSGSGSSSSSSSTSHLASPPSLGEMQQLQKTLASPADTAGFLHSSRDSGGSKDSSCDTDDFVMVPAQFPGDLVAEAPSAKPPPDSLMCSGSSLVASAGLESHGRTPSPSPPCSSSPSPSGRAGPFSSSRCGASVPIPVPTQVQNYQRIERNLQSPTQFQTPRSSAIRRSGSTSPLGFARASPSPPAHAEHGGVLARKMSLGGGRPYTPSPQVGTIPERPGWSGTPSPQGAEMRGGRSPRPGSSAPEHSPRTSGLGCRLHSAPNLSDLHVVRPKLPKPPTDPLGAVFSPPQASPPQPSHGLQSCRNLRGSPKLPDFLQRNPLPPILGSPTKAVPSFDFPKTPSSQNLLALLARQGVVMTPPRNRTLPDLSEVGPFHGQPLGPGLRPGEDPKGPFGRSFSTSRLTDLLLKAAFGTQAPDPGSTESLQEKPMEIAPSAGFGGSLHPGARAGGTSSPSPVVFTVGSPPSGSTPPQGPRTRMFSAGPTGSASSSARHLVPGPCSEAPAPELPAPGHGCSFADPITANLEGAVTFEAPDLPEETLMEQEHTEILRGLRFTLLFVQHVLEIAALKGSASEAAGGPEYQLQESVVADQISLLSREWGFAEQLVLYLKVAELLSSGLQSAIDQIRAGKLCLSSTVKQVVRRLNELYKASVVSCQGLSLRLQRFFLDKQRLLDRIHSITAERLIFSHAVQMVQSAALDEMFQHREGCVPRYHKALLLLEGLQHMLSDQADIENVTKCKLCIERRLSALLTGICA
Chain of UniProt Q96BR1 (whole entry, looked up): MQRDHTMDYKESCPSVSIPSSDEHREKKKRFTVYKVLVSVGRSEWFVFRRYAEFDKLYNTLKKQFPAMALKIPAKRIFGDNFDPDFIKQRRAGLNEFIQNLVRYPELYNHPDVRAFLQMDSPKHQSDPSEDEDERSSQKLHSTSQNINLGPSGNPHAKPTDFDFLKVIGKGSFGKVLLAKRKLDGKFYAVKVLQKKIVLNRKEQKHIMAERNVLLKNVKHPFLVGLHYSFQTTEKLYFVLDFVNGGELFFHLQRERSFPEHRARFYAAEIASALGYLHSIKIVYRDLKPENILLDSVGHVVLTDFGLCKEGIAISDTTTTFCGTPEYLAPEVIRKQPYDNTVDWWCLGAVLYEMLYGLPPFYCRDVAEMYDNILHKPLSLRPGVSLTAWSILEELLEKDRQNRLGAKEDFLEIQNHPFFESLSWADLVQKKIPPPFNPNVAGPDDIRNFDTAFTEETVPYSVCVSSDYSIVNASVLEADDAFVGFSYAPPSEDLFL
Chain of UniProt P08631 (whole entry, looked up): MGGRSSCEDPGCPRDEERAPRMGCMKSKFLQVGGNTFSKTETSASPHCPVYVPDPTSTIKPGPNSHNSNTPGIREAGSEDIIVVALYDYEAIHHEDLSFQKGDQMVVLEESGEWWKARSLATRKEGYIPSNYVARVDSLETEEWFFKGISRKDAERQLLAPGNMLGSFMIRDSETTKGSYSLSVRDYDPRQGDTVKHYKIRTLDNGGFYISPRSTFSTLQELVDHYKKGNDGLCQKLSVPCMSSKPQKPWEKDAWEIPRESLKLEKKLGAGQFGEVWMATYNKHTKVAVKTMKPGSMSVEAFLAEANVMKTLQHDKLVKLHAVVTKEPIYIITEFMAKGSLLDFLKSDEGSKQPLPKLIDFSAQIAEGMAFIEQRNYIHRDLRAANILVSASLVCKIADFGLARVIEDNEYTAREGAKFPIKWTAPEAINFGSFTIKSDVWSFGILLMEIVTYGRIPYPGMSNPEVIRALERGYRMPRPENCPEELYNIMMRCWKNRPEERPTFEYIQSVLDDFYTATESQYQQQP
Chain of UniProt O43353 (whole entry, looked up): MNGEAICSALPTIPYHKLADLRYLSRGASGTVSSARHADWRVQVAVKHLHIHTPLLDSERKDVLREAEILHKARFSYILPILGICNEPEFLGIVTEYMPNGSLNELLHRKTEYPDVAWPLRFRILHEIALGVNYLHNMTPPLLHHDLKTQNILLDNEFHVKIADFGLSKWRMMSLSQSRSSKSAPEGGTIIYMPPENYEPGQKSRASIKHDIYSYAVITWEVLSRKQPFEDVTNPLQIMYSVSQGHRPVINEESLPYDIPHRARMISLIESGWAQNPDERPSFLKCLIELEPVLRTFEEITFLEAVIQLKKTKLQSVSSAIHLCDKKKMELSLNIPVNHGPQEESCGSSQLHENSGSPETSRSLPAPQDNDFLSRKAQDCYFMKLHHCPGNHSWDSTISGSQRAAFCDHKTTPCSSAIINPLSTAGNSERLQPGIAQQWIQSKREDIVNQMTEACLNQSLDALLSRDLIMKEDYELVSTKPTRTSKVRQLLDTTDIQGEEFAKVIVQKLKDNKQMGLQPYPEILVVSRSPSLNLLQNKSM

Block 1 — cell line: mouse MPNST tumor cells; technique: high-content immunofluorescence imaging; item: nuclear SOX9; concentration: 10 µM; time: 12 h; notes: mean of 2 replicates; relative to: DMSO control; direction: higher = more nuclear SOX9
For `NC(=O)OCCCc1ccccc1`, “nuclear SOX9 intensity” read 88.9 % of DMSO.
For `Cc1ccccc1C(c1ccccc1C)N1C2CCC1CC(O)(c1ccccc1)C2` (stereo not shown), “nuclear SOX9 intensity” read 101 % of DMSO.
`CCC(=O)O[C@H]1CC[C@H]2[C@@H]3CCC4=CC(=O)CC[C@]4(C)[C@H]3CC[C@]12C` — result for “nuclear SOX9 intensity”: 89.7 % of DMSO.
`CC(C)(C)c1cc(C(C)(C)C)c2c(c1)C(O)(C(F)(F)F)C(=O)O2` (racemic): “nuclear SOX9 intensity” 99.5 % of DMSO.
`N[C@@H]1C[C@H]1c1ccccc1`: “nuclear SOX9 intensity” 77.4 % of DMSO and 99.8 % of DMSO.
`COc1ccccc1CN[C@H]1C2CCN(CC2)[C@H]1C(c1ccccc1)c1ccccc1` — result for “nuclear SOX9 intensity”: 156 % of DMSO.

Block 2 — observed: enzyme activity; mode: inhibitor; concentration: 0.5 µM; relative to: control
SMILES: N/C(=N\[N+](=O)[O-])N/N=C\c1ccc(-c2cccc([N+](=O)[O-])c2)o1
It gave 93.8% for remaining activity (Serine/threonine-protein kinase ULK1 (ULK1, Homo sapiens, UniProt O75385)).
For Serine/threonine-protein kinase Sgk3 (SGK3, Homo sapiens, UniProt Q96BR1): remaining activity read 107%.
It gave 106% for remaining activity (Receptor-interacting serine/threonine-protein kinase 2 (RIPK2, Homo sapiens, UniProt O43353)).
BDNF/NT-3 growth factors receptor (NTRK2, Homo sapiens, UniProt Q16620) — remaining activity: 82.4%.
For Tyrosine-protein kinase HCK (HCK, Homo sapiens, UniProt P08631): remaining activity read 114%.
For Phosphorylase b kinase gamma catalytic chain, liver/testis isoform (PHKG2, Homo sapiens, UniProt P15735): remaining activity read 100%.
It gave 95.4% for remaining activity (Dual serine/threonine and tyrosine protein kinase (DSTYK, Homo sapiens, UniProt Q6XUX3)).
Dual specificity tyrosine-phosphorylation-regulated kinase 2 (DYRK2, Homo sapiens, UniProt Q92630) — remaining activity: 93.1%.
It gave 109% for remaining activity (Mitogen-activated protein kinase kinase kinase kinase 5 (MAP4K5, Homo sapiens, UniProt Q9Y4K4)).

Block 3 — organism: Cryptosporidium parvum; cell line: HCT-8; strain: nanoluciferase-expressing
SMILES: CNC(=O)c1ccc(-c2cnn3ccc(C(=O)N(C)c4ccc(Cl)c(C(=O)OC)c4)cc23)cc1
The parasite luminescence was 26100 RLU and 27300 RLU (time-kill; 0.2469 µM, 48 h; higher = more parasites).
time-kill; 6.667 µM, 4 h; higher = more parasites — parasite luminescence: 88100 RLU and 78300 RLU.
For time-kill; 0.2469 µM, 72 h; higher = more parasites: parasite luminescence read 25800 RLU and 21300 RLU.
It gave 253000 RLU and 160000 RLU for parasite luminescence (time-kill; 0.00102 µM, 24 h; higher = more parasites).
It gave -1760 and -1790 and -1940 and -1830 for parasite luminescence (washout; concentration not given, exposure 0-72 h post-infection, unit not given; relative to: day 0 RLU).
time-kill; 6.667 µM, 72 h; higher = more parasites — parasite luminescence: 18900 RLU and 18800 RLU.
For time-kill; 0.00102 µM, 48 h; higher = more parasites: parasite luminescence read 285000 RLU and 214000 RLU.

Block 4 — observed: binding; technique: radioligand binding; concentration: 10 µM
Target: Sodium-dependent noradrenaline transporter (SLC6A2, Homo sapiens, UniProt P23975)
Chain of UniProt P23975 (whole entry, looked up): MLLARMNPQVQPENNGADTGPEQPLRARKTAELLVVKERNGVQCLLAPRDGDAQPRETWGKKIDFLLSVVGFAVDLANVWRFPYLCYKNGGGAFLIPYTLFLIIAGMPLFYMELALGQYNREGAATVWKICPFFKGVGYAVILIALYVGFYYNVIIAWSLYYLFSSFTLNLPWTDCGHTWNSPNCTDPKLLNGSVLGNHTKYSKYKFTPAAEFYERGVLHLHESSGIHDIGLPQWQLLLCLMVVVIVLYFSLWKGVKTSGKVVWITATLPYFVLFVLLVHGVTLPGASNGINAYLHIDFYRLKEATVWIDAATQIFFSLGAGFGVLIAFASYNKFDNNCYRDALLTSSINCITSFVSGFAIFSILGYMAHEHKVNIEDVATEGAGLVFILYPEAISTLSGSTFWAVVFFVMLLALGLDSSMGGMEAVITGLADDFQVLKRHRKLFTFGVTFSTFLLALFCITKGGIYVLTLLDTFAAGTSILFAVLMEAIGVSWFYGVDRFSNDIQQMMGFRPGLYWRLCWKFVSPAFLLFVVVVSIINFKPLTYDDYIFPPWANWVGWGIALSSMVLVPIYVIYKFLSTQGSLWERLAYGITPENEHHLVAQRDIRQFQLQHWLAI
The inhibition of `Cc1c(N2CCCC2)nc2ccc(Br)cc2c1C(=O)NC[C@H](CCC(=O)O)c1ccccc1Cl` is reported as -12.9%.
`CN(C)C(=O)Cn1cc(-c2nc([C@@](C)(c3ccc(-c4cnc(N)nc4)cc3)C3CC3)no2)cn1` gave an inhibition of 18.9%.
`Cc1cc(C)c(-n2ccn3nc(-c4cccnc4)cc23)cc1NC(=O)c1cc(C#N)cc(S(F)(F)(F)(F)F)c1` has an inhibition of 1.95%.
With `O=C1c2ccc(Nc3ccc(F)cc3F)cc2CCc2ccc(OC[C@H](O)CO)cc21` the inhibition was 29.4%.
`O=C(Nc1cccnn1)N1CCC(=Cc2cccc(Oc3ccc(C(F)(F)F)cn3)c2)CC1` has an inhibition of 7.86%.
The inhibition of `CN1CCN(C(=O)C(C)(C)c2ccc(C(=O)Nc3cn4cc(-c5ccncc5)ccc4n3)cc2)CC1` is reported as 5.3%.
The inhibition of `O=C1CCc2cc(Nc3cc(OC4CCOCC4)c([N+](=O)[O-])cc3Cl)ccc2N1` is reported as 0.76%.
`O=C([C@H]1C[C@H](O)CN1c1ccc(Cl)cc1)N1CC2COCC(C1)N2Cc1ccc(Cl)cc1` has an inhibition of -4.52%.
With `COCCc1ccc(-c2c(C)nc3c(N4CCOCC4)ccnn23)cn1` the inhibition was 16%.
With `CN1C(=O)[C@@H](N2CCc3cn(Cc4ccccc4)nc3C2=O)COc2ccccc21` the inhibition was -12.2%.
`CN([C@@H]1CCc2c(CC(=O)O)c3cc(S(C)(=O)=O)ccc3n2C1)S(=O)(=O)c1ccc(F)cc1` has an inhibition of 22.3%.
The inhibition of `CNC(=O)Nc1ccc2c(c1)[C@]1(CC2)OC(=O)N(CC(=O)N(Cc2ccc(F)cc2)[C@@H](C)C(F)(F)F)C1=O` is reported as -12%.
With `COc1nc2ccc([C@@](O)(c3ccccc3)C3CCN(C(C)=O)CC3)cc2c(Cl)c1Cc1ccc(-n2cccn2)cc1` the inhibition was 21.7%.
For `O[C@]1(C(F)(F)F)CCCC[C@H]1Nc1ccc(F)cc1`, the inhibition was 0.78%.
`O=C(Nc1ccc(-n2nc(-c3cccnc3)cc2C(F)(F)F)cn1)c1ccc(-c2ccccc2)c(F)c1` gave an inhibition of -9.35%.
`C[C@@]1(Cc2ccc(C#N)cc2)C(=O)N(c2cc(Cl)cc(Cl)c2)c2ncc(C(=O)NC3(c4nc(C5CCC5)no4)CC3)n21` gave an inhibition of -16.9%.
`CS(=O)(=O)NCC[C@H](NC(=O)c1cncc2c1cnn2-c1ccc(F)cc1)c1ccnc(S(C)(=O)=O)c1` gave an inhibition of -24.5%.
With `CCCOc1ccc([C@H]2[C@H](C(=O)O)[C@@H](c3ccc4c(c3)OCO4)CN2CC(=O)Nc2c(CC)cccc2CC)cc1` the inhibition was -17.5%.
`c1ccc(C2CCN(c3cnc4c(N5CCOCC5)nccn34)CC2)cc1` has an inhibition of 17.4%.
For `C[C@@H]1CN(c2cc(-c3nn(C)c4ccc(OC5(C)CC5)cc34)ncn2)C[C@H](C)O1`, the inhibition was 30.6%.
`Cc1c(NC(=O)c2cc(C(N)=O)nc3cc(F)ccc23)c(C(F)(F)F)nn1Cc1ccc(C(C)(C)C)cc1` gave an inhibition of -4.06%.
The inhibition of `COc1cccc(CNC(=O)c2nc3scc(COCc4ccc(C(=O)O)cc4)c3c(=O)[nH]2)c1` is reported as 12.6%.
The inhibition of `CC1=C(C#N)[C@@H](c2ccc3[nH]nc(C)c3c2)C(C#N)=C(c2ccc(Cl)cc2)N1` is reported as 8.56%.
For `Cc1nc(Cc2cccc(C(F)(F)F)c2)sc1-c1ccc(C(N)=O)nc1`, the inhibition was -8.77%.
`Cc1nc(C2CCN(C(=O)c3ccc(OC(F)(F)F)cc3N)CC2)c2ncc(N3CCN(C)CC3)cc2n1` has an inhibition of 24.6%.

Block 5
Structure (SMILES): CO[C@@H]1[C@@H](OC(N)=O)[C@@H](O)[C@H](Oc2ccc3c(O)c(NC(=O)c4ccc(O)c(CC=C(C)C)c4)c(=O)oc3c2C)OC1(C)C
The clonogenic survival was 0.0125 and 0.1 and 0.0526 (RPE-1 wild type; 200 µM, unit not given; relative to: untreated).
The clonogenic survival was 82.8% and 72.7% (CAPAN-1 BRCA2-corrected; 200 µM).
The clonogenic survival was 67.9% and 88.4% and 69.6% (RPE-1 wild type; 50 µM).
The clonogenic survival was 86.8% and 84.8% (CAPAN-1 BRCA2-corrected; 100 µM).
For RPE-1 BRCA1-/-; 25 µM: clonogenic survival read 62.5% and 45% and 78.8%.
For RPE-1 wild type; 75 µM, unit not given; relative to: untreated: clonogenic survival read 0.986 and 1.14 and 0.95.
It gave 1.05 and 1.14 and 0.887 for clonogenic survival (RPE-1 wild type; 10 µM, unit not given; relative to: untreated).

Single results of other studies
With `CC#CC(=O)N1CCC[C@H]1c1nc(-c2ccc(C(=O)Nc3ccccn3)cc2)c2c(N)nccn12` the inhibition was 0% (Serine/threonine-protein kinase 33 (STK33, Homo sapiens, UniProt Q9BYT3); enzyme activity, inhibitor; 1 µM).

A few entries again (block 4):
`O=C([C@H]1C[C@H](O)CN1c1ccc(Cl)cc1)N1CC2COCC(C1)N2Cc1ccc(Cl)cc1` has an inhibition of -4.52%.
With `COCCc1ccc(-c2c(C)nc3c(N4CCOCC4)ccnn23)cn1` the inhibition was 16%.
With `CN1C(=O)[C@@H](N2CCc3cn(Cc4ccccc4)nc3C2=O)COc2ccccc21` the inhibition was -12.2%.
`CN([C@@H]1CCc2c(CC(=O)O)c3cc(S(C)(=O)=O)ccc3n2C1)S(=O)(=O)c1ccc(F)cc1` has an inhibition of 22.3%.
The inhibition of `CNC(=O)Nc1ccc2c(c1)[C@]1(CC2)OC(=O)N(CC(=O)N(Cc2ccc(F)cc2)[C@@H](C)C(F)(F)F)C1=O` is reported as -12%.
With `COc1nc2ccc([C@@](O)(c3ccccc3)C3CCN(C(C)=O)CC3)cc2c(Cl)c1Cc1ccc(-n2cccn2)cc1` the inhibition was 21.7%.
For `O[C@]1(C(F)(F)F)CCCC[C@H]1Nc1ccc(F)cc1`, the inhibition was 0.78%.
`O=C(Nc1ccc(-n2nc(-c3cccnc3)cc2C(F)(F)F)cn1)c1ccc(-c2ccccc2)c(F)c1` gave an inhibition of -9.35%.
